Measured values pooled from the literature.
Numbered parts are unrelated; each lists some results of a single study. Positions count from the first letter of the parent shown.
Sequence of UniProt Q00537 (whole entry, looked up): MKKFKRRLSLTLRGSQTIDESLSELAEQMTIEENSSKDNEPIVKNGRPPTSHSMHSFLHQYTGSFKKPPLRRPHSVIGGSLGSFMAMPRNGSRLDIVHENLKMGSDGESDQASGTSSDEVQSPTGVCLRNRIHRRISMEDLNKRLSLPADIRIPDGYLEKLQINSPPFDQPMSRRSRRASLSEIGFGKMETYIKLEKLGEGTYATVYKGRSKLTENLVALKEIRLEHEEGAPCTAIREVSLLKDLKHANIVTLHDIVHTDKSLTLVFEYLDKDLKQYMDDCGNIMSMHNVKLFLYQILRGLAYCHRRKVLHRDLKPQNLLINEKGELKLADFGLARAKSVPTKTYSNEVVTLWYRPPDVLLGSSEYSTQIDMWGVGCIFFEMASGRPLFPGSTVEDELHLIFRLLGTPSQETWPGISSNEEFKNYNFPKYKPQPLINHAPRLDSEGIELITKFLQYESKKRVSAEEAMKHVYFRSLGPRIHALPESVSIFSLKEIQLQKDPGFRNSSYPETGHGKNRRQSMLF
Sequence of UniProt Q2M2I8 (whole entry, looked up): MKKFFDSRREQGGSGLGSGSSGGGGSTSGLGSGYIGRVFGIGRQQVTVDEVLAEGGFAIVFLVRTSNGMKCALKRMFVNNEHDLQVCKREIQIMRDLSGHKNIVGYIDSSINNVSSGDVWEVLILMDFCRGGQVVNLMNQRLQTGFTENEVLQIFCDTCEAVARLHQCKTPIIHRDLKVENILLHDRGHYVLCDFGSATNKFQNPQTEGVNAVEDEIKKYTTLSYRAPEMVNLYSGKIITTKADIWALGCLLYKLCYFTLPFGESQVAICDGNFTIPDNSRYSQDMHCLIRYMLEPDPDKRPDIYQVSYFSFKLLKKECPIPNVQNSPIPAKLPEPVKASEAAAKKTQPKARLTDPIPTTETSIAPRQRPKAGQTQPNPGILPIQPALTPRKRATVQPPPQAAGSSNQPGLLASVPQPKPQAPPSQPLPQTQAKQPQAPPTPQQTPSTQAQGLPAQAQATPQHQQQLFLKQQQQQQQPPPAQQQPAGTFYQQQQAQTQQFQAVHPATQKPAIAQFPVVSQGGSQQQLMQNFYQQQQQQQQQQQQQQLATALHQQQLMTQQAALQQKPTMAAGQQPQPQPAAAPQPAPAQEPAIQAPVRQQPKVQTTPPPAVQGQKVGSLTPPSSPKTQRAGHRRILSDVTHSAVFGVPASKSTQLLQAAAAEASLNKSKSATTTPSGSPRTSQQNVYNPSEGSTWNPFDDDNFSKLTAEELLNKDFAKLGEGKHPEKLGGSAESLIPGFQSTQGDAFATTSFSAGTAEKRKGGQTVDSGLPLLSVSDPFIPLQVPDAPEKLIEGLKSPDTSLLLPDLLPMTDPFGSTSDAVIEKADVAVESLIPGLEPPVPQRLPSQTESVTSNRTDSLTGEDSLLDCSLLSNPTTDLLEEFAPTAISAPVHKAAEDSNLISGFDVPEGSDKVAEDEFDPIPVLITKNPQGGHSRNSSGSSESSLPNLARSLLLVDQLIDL
Sequence of UniProt O00238 (whole entry, looked up): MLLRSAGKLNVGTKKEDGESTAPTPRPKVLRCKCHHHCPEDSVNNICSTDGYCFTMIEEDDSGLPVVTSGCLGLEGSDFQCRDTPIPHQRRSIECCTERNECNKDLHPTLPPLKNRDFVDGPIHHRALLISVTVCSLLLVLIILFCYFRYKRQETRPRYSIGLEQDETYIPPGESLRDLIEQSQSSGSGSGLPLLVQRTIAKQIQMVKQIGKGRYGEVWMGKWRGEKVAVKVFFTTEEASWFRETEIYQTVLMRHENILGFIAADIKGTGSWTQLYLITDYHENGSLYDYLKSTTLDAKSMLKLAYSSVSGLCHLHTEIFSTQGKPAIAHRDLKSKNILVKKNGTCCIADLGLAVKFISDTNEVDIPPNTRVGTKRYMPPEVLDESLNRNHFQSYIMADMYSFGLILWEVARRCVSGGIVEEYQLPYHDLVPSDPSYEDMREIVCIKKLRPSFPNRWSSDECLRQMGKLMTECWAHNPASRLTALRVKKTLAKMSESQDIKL
Sequence of UniProt O95382 (whole entry, looked up): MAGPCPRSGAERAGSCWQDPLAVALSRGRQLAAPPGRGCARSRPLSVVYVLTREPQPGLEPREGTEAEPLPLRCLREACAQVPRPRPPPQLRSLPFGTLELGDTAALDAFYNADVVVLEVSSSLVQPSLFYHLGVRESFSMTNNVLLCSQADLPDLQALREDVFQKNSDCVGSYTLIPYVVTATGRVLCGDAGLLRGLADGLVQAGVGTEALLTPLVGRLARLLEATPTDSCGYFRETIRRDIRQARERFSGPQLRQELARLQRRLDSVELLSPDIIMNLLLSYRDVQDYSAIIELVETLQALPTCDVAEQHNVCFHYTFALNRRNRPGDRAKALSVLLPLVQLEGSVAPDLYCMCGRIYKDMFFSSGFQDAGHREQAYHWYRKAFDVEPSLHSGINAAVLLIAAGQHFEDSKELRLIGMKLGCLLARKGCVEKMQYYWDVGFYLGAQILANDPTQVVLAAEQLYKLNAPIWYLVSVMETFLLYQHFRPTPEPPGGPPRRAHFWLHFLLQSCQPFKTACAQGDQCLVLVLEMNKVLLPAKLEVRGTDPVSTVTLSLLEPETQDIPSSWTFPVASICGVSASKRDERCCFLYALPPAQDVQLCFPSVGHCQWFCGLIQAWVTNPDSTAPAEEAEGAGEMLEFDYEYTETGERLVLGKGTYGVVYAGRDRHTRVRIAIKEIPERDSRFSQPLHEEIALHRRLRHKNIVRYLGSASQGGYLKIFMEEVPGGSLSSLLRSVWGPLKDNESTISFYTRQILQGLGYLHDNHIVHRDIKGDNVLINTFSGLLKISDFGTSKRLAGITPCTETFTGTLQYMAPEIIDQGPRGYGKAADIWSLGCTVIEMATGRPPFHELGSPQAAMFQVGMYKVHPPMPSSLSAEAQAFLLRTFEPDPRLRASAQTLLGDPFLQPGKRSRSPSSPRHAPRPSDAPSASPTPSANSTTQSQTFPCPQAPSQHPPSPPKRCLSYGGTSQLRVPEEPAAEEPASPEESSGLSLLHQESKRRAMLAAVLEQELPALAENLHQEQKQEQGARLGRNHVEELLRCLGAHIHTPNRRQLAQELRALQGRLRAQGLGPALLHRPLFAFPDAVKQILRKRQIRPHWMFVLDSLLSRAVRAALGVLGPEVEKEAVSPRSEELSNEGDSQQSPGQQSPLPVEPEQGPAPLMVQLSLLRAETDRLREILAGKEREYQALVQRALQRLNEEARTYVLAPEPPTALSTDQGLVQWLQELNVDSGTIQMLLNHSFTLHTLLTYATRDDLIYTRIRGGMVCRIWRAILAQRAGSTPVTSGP
Sequence of UniProt P30291 (whole entry, looked up): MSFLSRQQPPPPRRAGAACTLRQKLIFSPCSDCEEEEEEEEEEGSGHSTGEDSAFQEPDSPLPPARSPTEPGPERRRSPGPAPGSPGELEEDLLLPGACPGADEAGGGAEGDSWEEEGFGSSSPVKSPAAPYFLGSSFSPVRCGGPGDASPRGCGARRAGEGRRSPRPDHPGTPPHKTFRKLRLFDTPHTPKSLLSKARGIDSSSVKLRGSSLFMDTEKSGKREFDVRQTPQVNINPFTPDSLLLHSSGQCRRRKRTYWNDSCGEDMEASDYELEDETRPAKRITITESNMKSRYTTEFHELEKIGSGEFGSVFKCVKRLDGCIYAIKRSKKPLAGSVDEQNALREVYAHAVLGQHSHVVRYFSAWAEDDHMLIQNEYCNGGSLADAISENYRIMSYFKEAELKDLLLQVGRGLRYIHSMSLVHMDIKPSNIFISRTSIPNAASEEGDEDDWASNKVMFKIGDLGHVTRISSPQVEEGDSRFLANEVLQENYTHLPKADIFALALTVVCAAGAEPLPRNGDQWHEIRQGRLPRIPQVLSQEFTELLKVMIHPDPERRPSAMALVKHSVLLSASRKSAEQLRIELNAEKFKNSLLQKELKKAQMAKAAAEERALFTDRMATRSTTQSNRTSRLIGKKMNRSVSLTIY
Sequence of UniProt P36896 (whole entry, looked up): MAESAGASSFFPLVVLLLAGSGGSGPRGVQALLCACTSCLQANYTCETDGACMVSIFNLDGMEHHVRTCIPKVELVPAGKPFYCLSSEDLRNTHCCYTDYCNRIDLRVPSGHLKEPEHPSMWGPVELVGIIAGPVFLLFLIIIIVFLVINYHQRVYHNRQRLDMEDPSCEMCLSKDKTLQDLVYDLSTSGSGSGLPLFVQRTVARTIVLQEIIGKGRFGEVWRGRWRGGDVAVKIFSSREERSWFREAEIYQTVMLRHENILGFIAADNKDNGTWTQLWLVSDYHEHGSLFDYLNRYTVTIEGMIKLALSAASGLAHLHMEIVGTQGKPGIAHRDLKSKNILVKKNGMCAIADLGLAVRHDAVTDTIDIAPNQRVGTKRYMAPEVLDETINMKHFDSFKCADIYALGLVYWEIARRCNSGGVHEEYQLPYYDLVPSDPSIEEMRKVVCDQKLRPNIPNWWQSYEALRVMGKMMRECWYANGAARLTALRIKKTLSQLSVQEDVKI

Block 1
Target: Serine/threonine-protein kinase Nek6 (NEK6, Homo sapiens, UniProt Q9HC98)
Sequence of UniProt Q9HC98 (whole entry, looked up): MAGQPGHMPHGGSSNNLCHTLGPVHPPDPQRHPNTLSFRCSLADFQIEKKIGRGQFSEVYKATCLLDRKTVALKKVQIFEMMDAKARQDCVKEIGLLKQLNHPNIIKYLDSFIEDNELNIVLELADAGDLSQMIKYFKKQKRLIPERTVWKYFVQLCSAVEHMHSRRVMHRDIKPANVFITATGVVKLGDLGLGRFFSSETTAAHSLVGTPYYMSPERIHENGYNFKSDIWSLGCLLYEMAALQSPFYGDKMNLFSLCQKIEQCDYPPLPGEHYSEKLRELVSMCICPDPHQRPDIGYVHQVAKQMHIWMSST
Read-out: enzyme activity
Action: inhibitor
Concentration: 0.5 µM
Baseline: control
Endpoint: remaining activity
Cn1sc(=O)n(Cc2ccccc2)c1=O: 102%
Cc1nc(-c2ccccc2)c(-c2ccncc2)o1: 94.4%
CO[C@H]1C[C@@H]2CC[C@@H](C)[C@@](O)(O2)C(=O)C(=O)N2CCCC[C@H]2C(=O)O[C@H]([C@H](C)C[C@@H]2CC[C@@H](O)[C@H](OC)C2)CC(=O)[C@H](C)/C=C(\C)[C@@H](O)[C@@H](OC)C(=O)[C@H](C)C[C@H](C)/C=C/C=C/C=C/1C: 97.7%
O=C(O)c1ccc2c3c1cccc3c(=O)n1c3ccccc3nc21: 115%
COc1ccc(C(=O)Nc2sc3c(c2C(N)=O)CCCC3)cc1OC: 92.7%
CN(C)c1ccc(C=C2C(=O)Nc3ccccc32)cc1: 96.9%
OCC(O)CCON=C1C(c2c(O)[nH]c3ccccc23)=Nc2ccccc21 (stereo not shown): 96.3%
O=C(Nc1cccc(Nc2cc(Nc3cccc(C(F)(F)F)c3)ncn2)c1)C1CC1: 99.2%

Block 2
Target: FOXO3, forkhead domain (mouse, UniProt Q9WVH4, residues 31-263)
Sequence of UniProt Q9WVH4 (31-263, looked up): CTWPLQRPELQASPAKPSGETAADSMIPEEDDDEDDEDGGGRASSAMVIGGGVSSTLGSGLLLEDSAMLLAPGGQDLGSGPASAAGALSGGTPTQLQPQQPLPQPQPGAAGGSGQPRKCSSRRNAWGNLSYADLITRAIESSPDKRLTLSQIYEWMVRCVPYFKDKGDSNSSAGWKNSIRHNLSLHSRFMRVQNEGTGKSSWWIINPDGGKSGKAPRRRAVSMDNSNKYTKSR
Method: protein-binding microarray
Molecule type: hairpin DNA
Sample: in vitro
Concentration: not given
Setting: whole hairpin DNA, median over replicate spots
Baseline: not given
Direction: higher = stronger binding
Endpoint: median fluorescence
All sequences stand within: GAGGCCA … TGGCCTCACACTC
GGCAAACAACGCCTCCTGGCGTTGTTTGCC: 5360 a.u.
CGTAAACAACGCCTCCTGGCGTTGTTTACG: 5720 a.u.
TGCAAACTACGCCTCCTGGCGTAGTTTGCA: 4320 a.u.
TGTAACCGACGCCTCCTGGCGTCGGTTACA: 4290 a.u.
TGTAAACAGCGCCTCCTGGCGCTGTTTACA (5mC at 29): 5210 a.u.
TGTAACAAACGCCTCCTGGCGTTTGTTACA: 3860 a.u.
TGTAAACCGCGCCTCCTGGCGCGGTTTACA (5mC at 15 29): 4350 a.u.
GGCAAACAACGCCTCCTGGCGTTGTTTGCC (5mC at 37): 5010 a.u.

Block 3
SMILES: CN(C)CC#Cc1ccc(OCCCc2sc(N3CCc4cccc(C(=O)Nc5nc6ccccc6s5)c4C3)nc2C(=O)O)c(F)c1
Concentration: 1 µM
Endpoint: remaining binding
MET (Homo sapiens, UniProt P08581, Y1235D); cell-free assay, competition with immobilised ligand: 95%
EGFR (Homo sapiens, UniProt P00533, L858R); cell-free assay, competition with immobilised ligand: 89%
WEE1 (Homo sapiens, UniProt P30291); cell-free assay, competition with immobilised ligand: 100%
Receptor-type tyrosine-protein kinase FLT3, autoinhibited (FLT3, Homo sapiens, UniProt P36888); cell-free assay, competition with immobilised ligand: 95%
AAK1 (Homo sapiens, UniProt Q2M2I8); binding: 91%
FLT3 (Homo sapiens, UniProt P36888, D835H); cell-free assay, competition with immobilised ligand: 93%
SRC (Homo sapiens, UniProt P12931); cell-free assay, competition with immobilised ligand: 100%
ACVR1B (Homo sapiens, UniProt P36896); cell-free assay, competition with immobilised ligand: 100%
LIM domain kinase 2 (LIMK2, Homo sapiens, UniProt P53671); cell-free assay, competition with immobilised ligand: 96%
BMPR1B (Homo sapiens, UniProt O00238); cell-free assay, competition with immobilised ligand: 84%
MAP3K6 (Homo sapiens, UniProt O95382); cell-free assay, competition with immobilised ligand: 82%
CDK17 (Homo sapiens, UniProt Q00537); cell-free assay, competition with immobilised ligand: 99%
CDK13 (Homo sapiens, UniProt Q14004); cell-free assay, competition with immobilised ligand: 100%

Block 4
Target: CCND2, cyclin fold, Cln2 fusion (human)
Method: yeast growth competition, sequencing
Sample: yeast
Setting: weak parent motif
Baseline: not given
Direction: higher = stronger binding
Endpoint: normalised enrichment score
Starting sequence: ORC1 docking peptide (human); PRARKRLELGNLG
E8R: 0.191
L9D: 0.147
R6Y: 0.00594
R6W: -0.262
R6V: 0.0901
R2L: 0.239
A3Q: 0.377
P1E: 0.328

Excerpt of the above (block 1):
O=C(O)c1ccc2c3c1cccc3c(=O)n1c3ccccc3nc21: 115%
COc1ccc(C(=O)Nc2sc3c(c2C(N)=O)CCCC3)cc1OC: 92.7%
